Measurements collected from several papers.
Parts stem from different laboratories: compare values within a part only. Positions count from the first letter of the parent shown.

Block 1
Target: RING finger protein unkempt homolog, zinc fingers 1-6, GST-SBP tag (UNK, Homo sapiens, UniProt Q9C0B0, residues 30-357)
UniProt Q9C0B0, sequence (30-357, looked up): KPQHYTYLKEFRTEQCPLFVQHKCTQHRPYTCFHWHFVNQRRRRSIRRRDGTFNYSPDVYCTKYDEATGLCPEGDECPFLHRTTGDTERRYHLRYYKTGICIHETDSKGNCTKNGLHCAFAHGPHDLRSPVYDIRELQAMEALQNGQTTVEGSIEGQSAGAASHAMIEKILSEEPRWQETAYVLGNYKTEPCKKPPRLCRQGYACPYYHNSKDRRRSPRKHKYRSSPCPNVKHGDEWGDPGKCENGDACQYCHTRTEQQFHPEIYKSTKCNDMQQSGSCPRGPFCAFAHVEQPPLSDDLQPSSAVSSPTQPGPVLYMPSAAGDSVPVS
Technique: RNA Bind-n-Seq
Form: RNA
Sample: in vitro
Tested at: not given
Setting: RNA with constant flanks, human and mouse sites, ends assumed
Baseline: input RNA pool
Direction: higher = stronger binding
Constant ends, left off below: GGGAGUUCUACAGUCCGACGAUC … CAACAGAGGAUUGAGCAUCA
| Strand | bound/input enrichment [ratio] |
| --- | --- |
| GUUUCUACCAUUAUAAAUAUUUGUCUUAAAUAUCUUACCUAUGAUCCAAAUUAUAAUUACGAUGAUGAAGAUGAAGAUGAAAAUGCAAUGGAUGCUGAUGGUGGUGAUGAUGAUGAUCAA | 0.175 |
| GAACUUAUCACUGGAGCCUAAAAAUGAGGAUUCAGCUUUGCCAGAAAAGGACAAAACAAAUAACUCAUCAAGAUCUAAGAAGCCCAAAGGGUUAGAACUGACACCCGCCCUUGUGGUCAC | 0.193 |
| UUCGGAAAGAGAGAGCAGGCUGAAGAGGAACGAUAUUUCCGAGCACAGAGUAGAGAACAACUGGCAGCUUUGAAAAAACACCAUGAAGAAGAAAUCGUUCAUCAUAAGAAGGAGAUUGAG | 0.34 |
| UUUUCACCCGAAUGUUUGCCGACCCUCACAGCAAGAGAGUUUUCAGUAUGUUUUUGGAGACCCUCGUGGAUUUUAUAAUCAUUCAUAAGGAUGACUUGCAAGACUGGCUCUUCGUCCUUC | 0.11 |
| ACCUGAGAAUGAUGCUAAGAAAAUUGAAGCACUGCUAAACCUUCCUAGAAACCCUUCAGUAAUAGAUAAACAAGACAAGGACUGAAAGUGCUCUGAACUUGAAACUCACUGGAGAGCUGA | 0.511 |
| GUGACAACUGGUACACUAGGAUUUGGAGAUAAAUUCAAAAGGCCUGUGGGCUCUUGGGAGUGUCCAGUCUGCUGUGUUUGUAAUAAGGCAGAAGACAACAGAUGUGUUUCCUGUACAUCU | 0.153 |

Block 2
Target: CCNA1, cyclin fold, Cln2 fusion (human)
Technique: yeast growth competition, sequencing
Sample: yeast
Setting: weak parent motif
Baseline: not given
Direction: higher = stronger binding
Parent: RBL1 docking peptide (human); GSAKRRLFGEDPP; partner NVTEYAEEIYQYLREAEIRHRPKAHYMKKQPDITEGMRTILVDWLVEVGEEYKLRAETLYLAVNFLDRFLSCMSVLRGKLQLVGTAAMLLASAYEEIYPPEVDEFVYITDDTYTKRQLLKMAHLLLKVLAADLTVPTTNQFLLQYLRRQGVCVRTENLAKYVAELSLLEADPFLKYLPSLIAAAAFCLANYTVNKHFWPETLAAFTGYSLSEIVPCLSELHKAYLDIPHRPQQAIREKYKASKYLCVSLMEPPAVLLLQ
| Change | normalised enrichment score |
| --- | --- |
| P13F | 0.272 |
| R5S | 0.426 |
| E10L | 0.585 |
| S2K | 0.201 |
| K4W | 0.185 |
| G9Y | 0.4 |
| A3V | 0.603 |
| G1L | 0.68 |
| G9S | 0.502 |
| P13S | 0.393 |
| F8C | 0.271 |
| K4Q | 0.303 |

Block 3
Target: ABI1, truncated, D143A, DHFR fusion (Arabidopsis thaliana)
Technique: DHFR PCA, deep sequencing
Sample: yeast
Setting: methotrexate growth selection, single substitutions
With: (+)-ABA 0.11 µM
Baseline: wild-type fitted maximum
Direction: higher = stronger binding
Parent: PYL1, truncated, DHFR fusion (Arabidopsis thaliana); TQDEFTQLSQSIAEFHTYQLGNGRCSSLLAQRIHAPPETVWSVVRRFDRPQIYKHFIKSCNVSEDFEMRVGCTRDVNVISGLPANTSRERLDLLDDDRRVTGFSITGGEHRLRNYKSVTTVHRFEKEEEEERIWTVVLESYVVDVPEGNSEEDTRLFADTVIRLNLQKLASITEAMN
| Change | relative binding score [%] |
| --- | --- |
| D92E | 14.3 |
| W41C | 0.484 |
| G108L | 1.65 |
| R163V | 15.7 |
| R99P | -9.55 |
| I12K | -1.32 |
| S59M | -5.06 |
| R49E | 14.7 |
| E67A | 14.7 |
| V118S | -3.32 |
| V143K | -0.964 |
| Q167L | 26.1 |

Block 4
Target: UBE2G2 UBC core domain (UniProt P60604)
Technique: yeast two-hybrid
Sample: yeast
Setting: mostly zero background
Baseline: not given
Direction: higher = stronger interaction
B1: TRIM69 RING domain (UniProt Q86WT6); chain VIQDITMELHCPLCNDWFRDPLMLSCGHNFCEACIQDFWRLQAKETFCPECKMLCQYNNCTF
B2: PHF21A RING domain (UniProt Q96BD5); chain SPTSTDGDIHEDFCSVCRKSGQLLMCDTCSRVYHLDCLDPPLKTIPKGMWICPRCQDQMLKKEEAIPW
B3: IRF2BPL RING domain (UniProt Q9H1B7); chain SPMANSGPLCCTICHERLEDTHFVQCPSVPSHKFCFPCSRESIKAQGATGEVYCPSGEKCPLVGSNVP
B4: UHRF2 RING domain (UniProt Q96PU4); chain CGGDPEKKCHSCSCRVCGGKHEPNMQLLCDECNVAYHIYCLNPPLDKVPEEEYWYCPSCKTDSSEVVKAGER
Construct (chain): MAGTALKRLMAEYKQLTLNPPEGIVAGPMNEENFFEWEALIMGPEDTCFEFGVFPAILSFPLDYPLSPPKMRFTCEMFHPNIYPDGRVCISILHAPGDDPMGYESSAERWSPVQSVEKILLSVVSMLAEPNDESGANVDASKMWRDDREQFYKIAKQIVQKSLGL
| Molecule | lacZ reporter activity |
| --- | --- |
| QLQDIKEQTMCPVCLDRLKNMIFLCGHGTCQLCGDRMSECPICRKAIERRILLY (MIB1 RING domain (UniProt Q86YT6)) | 11800 |
| B1 (TRIM69 RING domain) | 0 |
| B2 (PHF21A RING domain) | 0 |
| B3 (IRF2BPL RING domain) | 0 |
| PEELQAMDNVCIICREEMVTGAKRLPCNHIFHTSCLRSWFQRQQTCPTCRMDVLRASLPA (SYVN1 RING domain (UniProt Q86TM6)) | 0 |
| B4 (UHRF2 RING domain) | 0 |
| DDENSDNSNECVVCLSDLRDTLILPCRHLCLCTSCADTLRYQANNCPICRLPFRALLQIR (MGRN1 RING domain (UniProt O60291)) | 5900 |
| VTLSLTLPITCHICLGKVRQPVICINNHVFCSICIDLWLKNNSQCPACRVPITPENPCK (OBI1 RING domain (UniProt Q5W0B1)) | 0 |
| YWAMDSTFELCKICAESNKDVKIEPCGHLLCSCCLAAWQHSDSQTCPFCRCEIKGWEAVS (CBLC RING domain (UniProt Q9ULV8)) | 0 |
| DAIPSLSECQCGICMEILVEPVTLPCNHTLCKPCFQSTVEKASLCCPFCRRRVSSWTRYH (RNF168 RING domain (UniProt Q8IYW5)) | 7430 |
